Results gathered from unrelated publications.
A part holds a random share of what one study measured.

Block 1
Target: RING finger protein unkempt homolog, zinc fingers 1-6, GST-SBP tag (UNK, Homo sapiens, UniProt Q9C0B0, residues 30-357)
Technique: RNA Bind-n-Seq
Form: RNA
Sample: in vitro
Concentration: not given
Notes: RNA with constant flanks, human and mouse sites, ends assumed
Relative to: input RNA pool
Reading: higher = stronger binding
Endpoint: bound/input enrichment
Constant ends, left off below: GGGAGUUCUACAGUCCGACGAUC … CAACAGAGGAUUGAGCAUCA
Target sequence (chain): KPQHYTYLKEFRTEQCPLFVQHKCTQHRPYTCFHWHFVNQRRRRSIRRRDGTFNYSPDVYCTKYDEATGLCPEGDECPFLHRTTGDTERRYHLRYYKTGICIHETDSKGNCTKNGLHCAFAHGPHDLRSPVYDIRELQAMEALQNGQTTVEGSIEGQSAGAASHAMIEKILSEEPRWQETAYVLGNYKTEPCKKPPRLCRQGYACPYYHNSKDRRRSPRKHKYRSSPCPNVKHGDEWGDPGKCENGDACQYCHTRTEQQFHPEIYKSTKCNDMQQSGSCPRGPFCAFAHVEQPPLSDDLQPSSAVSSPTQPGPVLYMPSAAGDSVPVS
AGUACAGACUGAGAUUUGAAGGAAACAUGCACAAAUCUGUAAAACAUAGACCUUCGCUUUAUUUUUGUAAGUAUCACCUGCCACCAUGUUUUGUAAUUUGAGGUCUUGAUUUCACCAUUG: 0.242 ratio
UUUUUUUUUUUUUUUCUUUAAGAAAACUUCAGUUUAACAGUUUCUGCAAUACAAGCUUGUGAUUUAUGCUUACUCUAAGUGGAAAUCAGGAUUGUUAUGAAGACUUAAGGCCCAGUAUUU: 1.92 ratio
UACUGUCAAGGACAGUCUUUUCUUGCUGCUGUACUACUGUUGCAUAUGCCAGAGGAGCAAGCAUUCUGUGUUUUGGUGACUAUUAUGUAUGGUUAUAAAUUGAGAGACUUAUACAGAAAC: 0.244 ratio
AUUUCUUUGCAAAUGGAAGAGUUUAAUACUGCAAUUUAUUCCAAUGAUGACUUACUUUCUUCUAAGGAAGACAAAAUGAAAGAAAGUGAAACAUUUUCCGAUUCAUCUCCCAUUGAGAUA: 0.0868 ratio
AUAGAAACCUUGAUUGGCAAAAAGCAACAGAUAUCUCUUGCAACACAAAUGGUUAGAAUGAUUUUGAAGAUUGAUGACAUUCGUAAGCCUGGAGAAUCUGAAGAAUGAAGACAUUGAGAA: 0.273 ratio
AGGGUUGAUGUUCUGAAGAACCACUUGGUAAAAGAAGGGCGGGUGGAUGAAGAAAUUGCACUAAGAAUUAUCAAUGAGGGUGCUGCCAUACUUCGGCGGGAGAAAACCAUGAUAGAAGUA: 0.496 ratio
CUCAAGAGGCAGUUGCAACAACUGCAAGAAGGUACAUUACAGGAAUAUCAGAAGAGAAUGAAAAAACUAGAUCAGCAGUACAAAGAGAGGAUACGGAAUGCAGAACUCUUCCUCCAGCUG: 0.306 ratio
AAUCCACCUUACAGAGAGGAAGACAUACCAGCUCCCCUAAAUUUGUAUGGCAAAACAAAAUUAGAUGGAGAAAAGGCUGUCCUGGAGAACAAUCUAGGAGCUGCUGUUUUGAGGAUUCCU: 0.236 ratio
GAGGAGGAAGGACAGUCCAGCUCCCCAAAGAAAAAGAUCAAGUUGAAGAAGCAGAGAGAUGCGGCACGAGCUGCCGAAGGCGCUGCUGCCCAGAAUGAGUAUGAAGUCAAAGCGUCCGAG: 0.201 ratio
AGAGAAAUGGAUGGUGAUGUAGAGACCAUGCAGCAGACAAUAGAAGACUUGGAGGUAGCCAGUGACCCUUUAUAUCUGCCUGACCCGGAUCCCACCAAGUUUCCCAUCAAUCGAAAUUUA: 0.77 ratio
GCAAAGGGAAGCGAGACUCCUGGAGCAACCCCAGGCUCAAAAAUAUGGGAUCCUACACCUAGCCACACACCAGCGGGAGCUGCUACUCCUGGACGAGGUGAUACACCAGGCCAUGCGACA: 0.0948 ratio

Block 2
Target: RNA binding protein fox-1 homolog 2, RRM domain, GST-SBP tag (RBFOX2, Homo sapiens, UniProt O43251-10, residues 100-194)
Technique: RNA Bind-n-Seq
Form: RNA
Sample: in vitro
Concentration: 365 nM
Notes: natural RNA segment, single round, ends assumed
Relative to: no-protein control
Reading: higher = stronger binding
Endpoint: RBNS enrichment (R)
Constant ends, left off below: GGGAGUUCUACAGUCCGACGAUC … UGGAAUUCUCGGGUGCCAA
Construct (chain): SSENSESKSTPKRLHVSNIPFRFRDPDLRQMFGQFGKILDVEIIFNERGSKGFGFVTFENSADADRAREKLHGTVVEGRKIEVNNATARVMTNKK
UCCUGCCCAGACCUGCGGUCCCAGCAUCCCCCAGAGCCAGGGAACAGGCCCAGCGGGAGGGGGUUUUAUGUUUUGUUUCAAACAGAAAACACAACCUUAUUUUUCUUUAC: 0.354
ACGUUAUUAUAUUGUCGAAUUCCUACUGACAACAUUAUAACUGUAUGGGAGCUUAACUUUAUAAGGAAAUGUAUUUUGACACUGGUAUCUUAUUAAAGUAUUCUGAUCCU: 0.707
UUCCUACGAGAGGAGGAGACCUUCUGAGUGUGCCCUUUGGCCACGGACACUGUUGGGAACCAAACUCUGUCUUGGAGCCUCCUUUUAGCUCACUCCACAAGUAAAUGGAU: 0.261
UAGCCGGCUCCUGAAAGCAGGCGACAUCAGAGUGGUAACAGUCAGUAGGCUGCAGUAGGUGUCCUACCUCGAGGCCCUCAGAUGGAGGUAACACAUUAGGAUUGUGGGAC: 0.234
GGGGCAUGAUGGCAGUGUUUCUCUUUUAGGACAACACCCACGGAACACUCAAAGGCUGUGUGACUUGUCCUGUCCUGUGGCACCGAAGCCCUAGGUAGCUGGCUGUUUUG: 0.735
CCUUCUCUCUGACAGCCCAUCUUCGUCAGGCCCAUUCCCAGGAUGUCAACUGUGUGGCUUGGAAUCCCAAGGAGCCAGGGCUCCUGGCCUCUUGUAGUGAUGAUGGGGAG: 0.461
AGCCUCCGUCAACCGUCCUCUAAUCCAGAGUUUACUCCACCUGCCGCACUUAGCAGGGGGACGGGACCGAAGCUCCCUCAAUCCUUGUCUGGUACUAGAUUUGCUCCUGU: 0.389
UUAAACUAAAGAUCACGUCUCUGUUUUUAAAUUAUGCUAACACCACCACAGAUUAUGUUGACGUAUUUUCUUCUGUAUUUUCUUGGUGGGACUUGAGAUUUGAGGAAAAA: 0.311
ACUCUCAGGUAUAGAAGCCCAGGAUGUCUAAUACCCUGUCCCAGUGCCCGAGAGCUGCCUGGUGUCAGGUAGAGAGGACACUGUACCUGGGUGAAUGAUCAGACCCUGGU: 0.621
ACUUUCUGACAAGCUGAAGCUAAUUGGUUCUUGAAUCUGAGUUGUUUCAAUUUAGGCCAAGUACUAGAACAAGGAAUCAUCAAAGAUAUAUGGGUAGAUUUUAUUAUGUA: 0.447
ACGGUCCCCCCUCACUCCACACUGGCACGUUUGUGAGAAGAAAUGACAUUUUGCUAGGAAGUGACCGAGUCUAGGAAUGCUUUUAUUCAAGACACCAAAUUCCAAACUUC: 1.4
AGAAUGUUCAAAUAAAAUUUCCUGACCAAAUUGUUUUGUGGAAAUAGAUGUGUUUGCAAUUUGAAGAUAUCUUUCUGUCCAGAAGGCAAAAUUACCGAAUGCCAUUUUUA: 1.77

Block 3
Target: Histone acetyltransferase KAT6A, both winged helices, GST fusion (KAT6A, Homo sapiens, UniProt Q92794, residues 1-181)
Technique: protein binding microarray
Form: double-stranded DNA, one strand shown
Sample: in vitro
Concentration: not given
Notes: 8-mer, flanks averaged, mean of 2 arrays, mostly near background
Relative to: not given
Reading: higher = stronger binding
Endpoint: E-score
Target sequence (chain): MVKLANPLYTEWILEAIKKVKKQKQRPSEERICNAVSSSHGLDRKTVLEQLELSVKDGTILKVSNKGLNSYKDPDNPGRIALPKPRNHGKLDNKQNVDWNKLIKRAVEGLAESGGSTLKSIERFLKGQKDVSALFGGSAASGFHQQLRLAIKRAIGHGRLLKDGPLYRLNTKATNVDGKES
ACTCGATA: -0.0704
CCACTACC: -0.0621
GAGCGACC: 0.0251
CTTTAACA: 0.0844
GGAGGACA: -0.098
GGCCGTCA: 0.205
ACGCCGAA: 0.194
ACCGGGAG: 0.197
CAAGCGCC: 0.305
AAGACAAT: -0.103
AAGGACTC: -0.0124
CTATGCTC: -0.132
TAGGGATA: -0.103
CGCCACTC: 0.105
CAGACTGC: 0.0241
CGTGGGCC: 0.0741
CACACCCC: -0.162

Block 4
Target: Ras GTPase-activating protein-binding protein 1, RRM domain (G3BP1, Homo sapiens, UniProt Q13283)
Sequence of UniProt Q13283 (whole entry, looked up): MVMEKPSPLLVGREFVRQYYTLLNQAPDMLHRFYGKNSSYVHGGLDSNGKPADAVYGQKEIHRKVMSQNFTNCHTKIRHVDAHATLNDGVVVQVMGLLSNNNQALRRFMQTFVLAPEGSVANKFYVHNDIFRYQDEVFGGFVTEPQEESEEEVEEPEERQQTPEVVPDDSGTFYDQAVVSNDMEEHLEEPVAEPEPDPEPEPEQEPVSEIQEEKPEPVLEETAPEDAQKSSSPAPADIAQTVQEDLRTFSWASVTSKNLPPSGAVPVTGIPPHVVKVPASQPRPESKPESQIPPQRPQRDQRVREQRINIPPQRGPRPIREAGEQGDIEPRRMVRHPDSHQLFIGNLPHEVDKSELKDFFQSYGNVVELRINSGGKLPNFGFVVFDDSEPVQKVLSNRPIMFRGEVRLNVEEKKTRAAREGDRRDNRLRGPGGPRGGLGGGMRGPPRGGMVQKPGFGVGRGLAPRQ
Technique: RNA Bind-n-Seq
Form: RNA
Sample: in vitro
Concentration: 1 µM
Notes: whole 134-nt RNA, ends assumed
With: 150 mM KCl
Relative to: input library
Reading: higher = stronger binding
Endpoint: log2 enrichment
Constant ends, left off below: GGGAGUUCUACAGUCCGACGAUC … UGGAAUUCUCGGGUGUCAAGG
CUCAAGUCCUGUGCUACACAUCGUAUGUACCGAAUCGGUGGAAAAAGGUUUGGAAAGUAUUAUGUUACGCCGUUCGGAUCUGCACUUCCA: -0.31
UGGCCCUGGUGGCAUGCGGGGAGGAAGAGGUGGCCUCAUGGAGCGUGGUGGUCCCGGUGGAAUGUUCAGAGGUGGCCGUGGUGGAGACAG: 0.971
UCAAGUCCUGUGCUACACAUCGUAUGUACCGAAUCGGCCCGGGCCCGGCCCGGGGAAAGUAUUAUGUUACGCCGUUCGGAUCUGCACUUC: -0.683
CUGUGCUACACAUCGUAUGUACCGAAUCGGGGCCCCCCGGGGCCCCCCGGGGCCCCCCGGGAAAGUAUUAUGUUACGCCGUUCGGAUCUG: -0.753
UCAAGUCCUGUGCUACACAUCGUAUGUACCGAAUCGGGGUUGGGGUUGGUUGGGGAAAGUAUUAUGUUACGCCGUUCGGAUCUGCACUUC: 0.157
CAAGUCCUGUGCUACACAUCGUAUGUACCGAAUCGGGGUUGGGGUUGGGGUUGGGGAAAGUAUUAUGUUACGCCGUUCGGAUCUGCACUU: 1.04
UCAAGUCCUGUGCUACACAUCGUAUGUACCGAAUCGGGAAAAAGGGAGGGUGGGAAAGUAUUAUGUUACGCCGUUCGGAUCUGCACUUCC: 0.666
UAACUUUAGAGGUGGAUCUGAUGGAUAUGGCAGUGGACGUGGAUUUGGGGAUGGCUAUAAUGGGUAUGGAGGAGGACCUGGAGGUGGCAA: -0.733
UUAUUCUGUGUGACACCUGCCCUCGUGCCUACCACCUCGUCUGCCUUGAUCCUGAGCUUGACCGGGCUCCAGAGGGCAAAUGGAGCUGCC: 0.121
AGUCCUGUGCUACACAUCGUAUGUACCGAAUCAAACCCAAACCCCCAAACCCCCAAAAAAGUAUUAUGUUACGCCGUUCGGAUCUGCACU: -0.128
CCUCAAGUCCUGUGCUACACAUCGUAUGUACCGAAUCGGGAGGGUGGGAGGGAAAGUAUUAUGUUACGCCGUUCGGAUCUGCACUUCCAG: 0.887
AGUCCUGUGCUACACAUCGUAUGUACCGAAUCGGGUUUUUGGGGUUUUUGGUUUUUGGAAAGUAUUAUGUUACGCCGUUCGGAUCUGCAC: -0.194
GCAGGAAGUAAAAACAAAUGGAAAUGCUUCGGAUAGUGGCAGGGGUGGGGGUUGCUAAGGAUAGGGUGGGAUGGGAGUGGGUAAAGAGUU: 1.35
CCUCAAGUCCUGUGCUACACAUCGUAUGUACCGAAUCGGGUGGGGUGGGUGGGAAAGUAUUAUGUUACGCCGUUCGGAUCUGCACUUCCA: -0.405
